Measured values gathered from unrelated publications.
Parts stem from different laboratories: compare values within a part only. Changes are numbered by the printed parent chain.

Sample 1 — technique: protein binding microarray; form: double-stranded DNA, one strand shown; medium: in vitro; concentration: not given; reference: not given; direction: higher = stronger binding; endpoint: E-score
Target: Histone acetyltransferase KAT6A, winged helix 1, GST fusion (KAT6A, Homo sapiens, UniProt Q92794, residues 1-85)
Setting: 8-mer, flanks averaged, mean of 2 arrays, mostly near background
Target sequence (chain): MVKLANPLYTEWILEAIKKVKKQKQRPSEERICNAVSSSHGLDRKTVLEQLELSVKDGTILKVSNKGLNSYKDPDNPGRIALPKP
AACAATAG: -0.103
TCGCACGA: 0.147
AACTTGAG: -0.27
CGAGTACC: 0.0673
CAACTGTC: -0.135
GATGCGAC: 0.281
AATAAAGC: -0.0735
CTTGTGTC: -0.188

Sample 2 — technique: protein-binding microarray; form: double-stranded DNA, one strand shown; medium: in vitro; concentration: 250 nM; setting: 60-bp whole probe; together with: salmon DNA 0.4 mg/ml; reference: random background probes; direction: higher = stronger binding; endpoint: log fluorescence; shared flanks, not repeated: GCCTAGCAC … GTCTTGATTCGCTTGACGCTGCTG
Target: Interferon regulatory factor 5, full length, phosphomimetic (IRF5, Homo sapiens, UniProt Q13568-2, residues 1-514, K96S/S451D/S453D/S456D/S462D)
TTACAATTTGCTTTAGTCATGTGCTAG: 0.675 z-score
TTAGGTATCGGCACTGGGTTAGTGCTA: 1.78 z-score
GACGGTATCGGGTAACGGGACGTGCTA: 3.37 z-score
GACGATTTCGGGGATCGAGACGTGCTA: 2.02 z-score
TTAGGTTTCCATCTCCTTTAGTGCTAG: 1.25 z-score
GACGAACTGGGGTATCGACACGTGCTA: 0.184 z-score
TTAGGTTTCCCTATCCTTTAGTGCTAG: 1.21 z-score
TTAGGTTTCGGGATTCGGTTAGTGCTA: 7.58 z-score

Sample 3 — technique: DNA-protein interaction ELISA; form: double-stranded DNA, one strand shown; medium: in vitro, bacterial lysate; concentration: not given; setting: whole dsDNA probe, crude lysate protein; reference: highest signal in screen; direction: higher = stronger binding; endpoint: relative absorbance
Target: Probable WRKY transcription factor 33, C-terminal DNA-binding domain (WRKY33, Arabidopsis thaliana, UniProt Q8S8P5, residues 346-449)
Residues (chain): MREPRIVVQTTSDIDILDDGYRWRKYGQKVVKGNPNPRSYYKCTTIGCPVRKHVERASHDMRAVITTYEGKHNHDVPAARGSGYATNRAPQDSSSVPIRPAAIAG
AAAAAAGATCTAGGCCTTGGGACTCAAAAA: 37.1 % of maximum
AAAAAAGTCCGCCCTTAATTCATATTAAAA: 98.9 % of maximum
AAAAAAGGAAAACGAGTTCATCTGGTAAAA: 35.9 % of maximum
AAAAAATCTAGGGGTACCTATTTGGCAAAA: 31.6 % of maximum
AAAAAACGCTTTCAGTTTTGATCTTAAAAA: 31.5 % of maximum
AAAAAAGCGGTAGATGCGCAACTGTGAAAA: 32.8 % of maximum
AAAAAATACTGGCTGTCTCGTTCACAAAAA: 30.8 % of maximum
AAAAAAGCGTAAGCCTTGACAGTCGTAAAA: 66.4 % of maximum

Mixed results — parent: viral docking peptide; CKVKRKLFGSENI
AKVKRKLFGSENI [C1A]
normalised enrichment score (CCNE2, cyclin fold, Cln2 fusion (human); yeast growth competition, sequencing; yeast; strong parent motif; reference: not given, higher = stronger binding): 3.76

For quick reference, copied from above (sample 2):
TTAGGTTTCCCTATCCTTTAGTGCTAG: 1.21 z-score
TTAGGTTTCGGGATTCGGTTAGTGCTA: 7.58 z-score
TTAGGTATCGGCACTGGGTTAGTGCTA: 1.78 z-score
